Results of several laboratories.
Each numbered part is a random draw from the data of one study; scales do not carry over between parts.

Series 1
Target: Sal-like protein 4, full length isoform A (SALL4, Homo sapiens, UniProt Q9UJQ4, residues 1-1053)
UniProt Q9UJQ4, sequence (whole entry, looked up): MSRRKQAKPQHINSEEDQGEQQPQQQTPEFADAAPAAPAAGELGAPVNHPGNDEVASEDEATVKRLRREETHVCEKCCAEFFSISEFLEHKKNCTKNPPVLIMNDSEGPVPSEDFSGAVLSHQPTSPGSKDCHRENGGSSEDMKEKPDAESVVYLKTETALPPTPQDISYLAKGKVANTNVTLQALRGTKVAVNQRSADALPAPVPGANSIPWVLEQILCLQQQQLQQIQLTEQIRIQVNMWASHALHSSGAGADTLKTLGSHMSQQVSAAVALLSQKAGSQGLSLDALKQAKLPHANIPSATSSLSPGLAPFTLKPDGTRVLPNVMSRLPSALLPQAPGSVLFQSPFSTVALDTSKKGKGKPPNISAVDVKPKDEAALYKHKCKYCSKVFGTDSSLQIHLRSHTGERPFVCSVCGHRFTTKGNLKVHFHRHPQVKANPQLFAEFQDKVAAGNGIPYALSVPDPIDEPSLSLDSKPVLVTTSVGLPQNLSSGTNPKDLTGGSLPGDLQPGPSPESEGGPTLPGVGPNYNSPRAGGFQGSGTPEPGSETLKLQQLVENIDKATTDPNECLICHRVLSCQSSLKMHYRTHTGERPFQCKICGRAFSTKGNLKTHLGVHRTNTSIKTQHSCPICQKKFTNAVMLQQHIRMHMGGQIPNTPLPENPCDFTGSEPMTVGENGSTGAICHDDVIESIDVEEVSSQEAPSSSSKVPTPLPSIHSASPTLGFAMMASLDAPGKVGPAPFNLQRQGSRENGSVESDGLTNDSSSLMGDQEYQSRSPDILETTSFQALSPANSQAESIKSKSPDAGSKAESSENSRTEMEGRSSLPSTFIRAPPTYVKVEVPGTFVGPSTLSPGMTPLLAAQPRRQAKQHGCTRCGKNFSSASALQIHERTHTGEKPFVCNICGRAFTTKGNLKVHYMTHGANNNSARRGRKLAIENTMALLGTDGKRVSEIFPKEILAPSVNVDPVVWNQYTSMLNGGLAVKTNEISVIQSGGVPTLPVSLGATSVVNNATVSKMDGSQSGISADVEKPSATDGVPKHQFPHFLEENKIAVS
Technique: universal PBM
Molecule type: double-stranded DNA, one strand shown
Sample: in vitro
Tested at: 600 nM
Setting: 8-mer, flanks averaged, mean of replicates
Direction: higher = stronger binding
Quantity: E-score
CGGCAGGC: -0.333
GAGTTCGC: -0.303
TGGGCAAA: -0.0126
ACTCCTGC: 0.0118
ATGGTGCC: -0.235
CAGTCAGA: -0.0431
CCAGCACC: -0.275
CATCAACC: 0.0911
AAGTACCG: 0.0179
CGGTCCAC: -0.357
CAGTGGGG: -0.35
CGAATTGC: -0.0594
ATCTGACC: 0.0586
GGGATTCA: -0.184
CCACGGCA: -0.172
AGAAACAG: 0.0226
AGTAGTTG: 0.009
ATGAAGCC: 0.0481
CAAATGTG: 0.164

Series 2
Target: RNA binding protein fox-1 homolog 2, RRM domain, GST-SBP tag (RBFOX2, Homo sapiens, UniProt O43251-10, residues 100-194)
Technique: RNA Bind-n-Seq
Molecule type: RNA
Sample: in vitro
Tested at: 365 nM
Setting: natural RNA segment, single round, ends assumed
Baseline: no-protein control
Direction: higher = stronger binding
Quantity: RBNS enrichment (R)
Shared flanks, not repeated: GGGAGUUCUACAGUCCGACGAUC … UGGAAUUCUCGGGUGCCAA
Residues (chain): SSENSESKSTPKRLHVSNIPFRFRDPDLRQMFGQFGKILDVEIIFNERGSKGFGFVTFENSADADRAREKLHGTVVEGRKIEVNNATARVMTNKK
GGGAAGGGAAGGAACCUGCAGCAGGGUUUCGAAGACAGCCAGGCCCUCCGUGAUUGAGGGCUCAUAUAGCCGCUGAGGGCAGCCUGCAGCCAGGUGGCCUCACCUGCUGC: 0.315
GAGUCUAUGCCCUAUAAGCUCAACGCCAAAACUGGCCUCAUUGACUACAACCAGCUGGCACUGACUGCUCGACUUUUCCGGCCACGGCUCAUCAUAGCUGGCACCAGCGC: 0.431
CCCUGUUUCAUGCCAGGGCCACCUCUGGUGAUCUAACUCUAUCCAAAUAGCGUUCUGCUUGGGAUGGUGGCUGGUUCUAUGCCUACGCUCUCCGGUGACACCUAUAAGCC: 0.332
UGAAGGUUGGACCCGUGAAGCCCUGGCAUAGACCUGAAGAGGUGGCAGCCAGUGGGUGGUUGUUUCUCAAUCUCUGUAGCAUGACUUUUUAAUCCCCAGGUGUGUUAGUC: 5.15
CUAAGAGCAUGGCCUCUCCCAGAACCCACCCAGGGUGGUGUGGUGGGGGCAACAGGGGCCAGACUCCUCUAGAGGGAGGGUGGCUCUGGGGCCCUGGAAAACGUGAGAGA: 0.793
GUAUAUGUAAAGUGAUAUUUCGCUCUACAAGUUUGGCCUUAAUUAAACUCAUGAAUUAUAGGCAUUUUUAAUUUUUUGUAGACUAUGAACCCUGGCUGAUAUUGAAGUCA: 0.579
UGGCACUUUGUUUUGACCUCUGGUAUAGAACUCUGACUUUUAUAGUUUUAAAAUGAUCAAUCUUUGUAUGAAAGUCAGUUUUCUUUCUUUAGGUAUCAGAAGAUUUUGCC: 0.739
UCUAACAGAGGAAAAAAAAUUUAAAAAGAGGGUAAGAAAUGACUCCAGUGGGGUGAUUUUAACAUGCAAAUGUCUGAGAUUUCUUCACUUGCUUUCUUCCUUACUCUGCC: 0.339
AAGGAUAUUUAUAAUUAAAACAGCCUGUCAUGAGGCAACUGUGAGUGGAACAUCUGGGAAUUUGAGAAGUAUCUGCAAAGUAUAGAAAAAUCAACAGAUUUGUGGACCCU: 0.51
CUUGAGUUCUUAAGUACAGAAGAUAGAAGUGAUUUAAAUGGCAUAGUAUAUAUAUCAUUUUCUGGCCUUUUAAAAUUUAUUUGAGACCUCUUGAUGAAAUGGACAUAUUA: 0.261
GAUGGUAGAGAGAGUUGCUGGCUAUUUAAAAAGCUCUUUCAUCUUUUAAUUCACCUCUUCUUUUCACCUCUUUAACCACUCCUCAGGAACAGAACACUUCUAGGACUGGG: 0.485
AAUGGGCAGGAGAGAAGGCCUUUAUUUCUCGCCCACCCAUUCCUCCUGUACCAGCACCUCCGUUUUCAGUCAGUGUUGUCCAGCAACGGUACCGUUUACACAGUCACCUC: 0.197

Series 3
Target: Interferon regulatory factor 3, full length, phosphomimetic (IRF3, Homo sapiens, UniProt Q14653, residues 1-427, S386D/S396D/S398D/S402D/T404D/S405D)
UniProt Q14653, sequence (whole entry, unmodified, looked up): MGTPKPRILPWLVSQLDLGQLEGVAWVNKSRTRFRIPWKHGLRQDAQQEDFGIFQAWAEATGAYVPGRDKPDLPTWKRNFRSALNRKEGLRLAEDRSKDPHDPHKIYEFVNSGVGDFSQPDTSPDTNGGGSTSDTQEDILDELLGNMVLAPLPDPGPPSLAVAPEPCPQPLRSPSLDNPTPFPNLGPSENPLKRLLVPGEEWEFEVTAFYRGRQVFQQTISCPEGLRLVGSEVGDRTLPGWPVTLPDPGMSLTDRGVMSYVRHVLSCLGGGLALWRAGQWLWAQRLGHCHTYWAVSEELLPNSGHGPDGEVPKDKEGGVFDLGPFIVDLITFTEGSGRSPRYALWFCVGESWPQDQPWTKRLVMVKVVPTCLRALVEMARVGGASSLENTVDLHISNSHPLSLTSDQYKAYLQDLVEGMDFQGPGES
Technique: protein-binding microarray
Molecule type: double-stranded DNA, one strand shown
Sample: in vitro
Tested at: 2540 nM top
Setting: 60-bp whole probe
With: salmon DNA 0.4 mg/ml
Baseline: random background probes
Direction: higher = stronger binding
Quantity: fitted relative affinity
Shared flanks, not repeated: GCCTAGCAC … GTCTTGATTCGCTTGACGCTGCTG
GACGATATCGGGTTTAGAGACGTGCTA: 0.417 z-score
GACGATATCGGGTTTCGAGAGGTGCTA: 0.828 z-score
CTTGCTTCCCAATTCTCTTTGTGCTAG: 1.68 z-score
GACGGACCGGACTATCGGGACGTGCTA: 0.246 z-score
TTCGGTTTCGACTTTCGGTTAGTGCTA: 4.72 z-score
CTCCTTCAGTATCCTTAGATGTGCTAG: 1.98 z-score
GACGGTCTCGACTATCGGGACGTGCTA: 0.107 z-score
GACCGACTGGGGTATCGGGACGTGCTA: -0.127 z-score
TCAGCTGTCCTTTGCAAACTGTGCTAG: 0.0841 z-score
GACGATTTCCGACTGGAGACGTGCTAG: 1.9 z-score
GCAAACCCCATTCTCAGCCCGTGCTAG: 1.12 z-score
TCATTTTCCATTTTGTGACTGTGCTAG: 7.15 z-score
GACGGATTGGGTTTCGGGACGTGCTAG: 1.74 z-score
CACGATCTCAGACTGGAGACGTGCTAG: 0.225 z-score
GACGATATCATTCTCGAGACGTGCTAG: 1.76 z-score
TTAGGTTTCGATATCGGTTAGTGCTAG: 6.69 z-score
GTCACATTGTGCAATCTTAATGTGCTA: 0.836 z-score
TTAGGTATCGAGACTGGGTTAGTGCTA: 0.146 z-score
TTAGATTTCAGTGCCGATTAGTGCTAG: 1.3 z-score
GACGGTATCGGGTCTGGGGACGTGCTA: 2.57 z-score
GAATGTTTTTCATTGTTTTTGTGCTAG: 0.798 z-score
TTAGGTATCCTACTGCTGTAGTGCTAG: 2.58 z-score
CATTGCCTATTTTTCACCTGGTGCTAG: 1.14 z-score
TTAGGTATCTGGTTTCGGTTAGTGCTA: 3.9 z-score
GACGGTTTCCTGCTGCTGACGTGCTAG: 3.22 z-score

Series 4
Target: Max dimerization protein 1, bHLH-zipper, MAX partner unstated (MXD1, Homo sapiens, UniProt Q05195, residues 56-136)
Technique: protein-binding microarray
Molecule type: double-stranded DNA, one strand shown
Sample: in vitro
Tested at: not given
Setting: k-mer, scored over probes, only values ≥0.25
Direction: higher = stronger binding
Quantity: E-score
Residues (chain): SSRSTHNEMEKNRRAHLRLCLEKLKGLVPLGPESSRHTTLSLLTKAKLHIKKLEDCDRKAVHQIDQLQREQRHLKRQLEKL
CAACATGG: 0.342
GCGTGAGC: 0.261
AGCATGGC: 0.404
GTGTGCTA: 0.258
CGTGTAAG: 0.272
ACCATGTG: 0.472
CCCGCCCA: 0.401
AGGCGGGG: 0.39
CGTACACG: 0.354
ACGTTCCA: 0.274
ACGTGAAA: 0.322
ACGCGGGG: 0.35
ATCGCGTG: 0.393
ACACCGTG: 0.264
CGTGTCAG: 0.281
AAACGTGC: 0.398
CGGACACG: 0.329
CGTGTGCA: 0.407
ACACACGC: 0.408
CCCGCCAC: 0.343
CCCGCCCC: 0.392
ATACCACG: 0.311
GCATGTCC: 0.406
CATCACGC: 0.254
GTCACGCA: 0.297

Series 5
Target: Phosphate system positive regulatory protein PHO4, full length, GST-tagged (PHO4, Saccharomyces cerevisiae, UniProt P07270, residues 1-312)
Technique: competition protein-binding microarray
Molecule type: double-stranded DNA, one strand shown
Sample: in vitro
Tested at: 2 µM
Setting: whole 60-bp probe, lowest competitor level
With: Cbf1 competitor, 0.05 µM
Direction: higher = stronger binding
Quantity: fluorescence intensity
Shared flanks, not repeated: … GTCTTGATTCGCTTGACGCTGCTG
Residues (chain): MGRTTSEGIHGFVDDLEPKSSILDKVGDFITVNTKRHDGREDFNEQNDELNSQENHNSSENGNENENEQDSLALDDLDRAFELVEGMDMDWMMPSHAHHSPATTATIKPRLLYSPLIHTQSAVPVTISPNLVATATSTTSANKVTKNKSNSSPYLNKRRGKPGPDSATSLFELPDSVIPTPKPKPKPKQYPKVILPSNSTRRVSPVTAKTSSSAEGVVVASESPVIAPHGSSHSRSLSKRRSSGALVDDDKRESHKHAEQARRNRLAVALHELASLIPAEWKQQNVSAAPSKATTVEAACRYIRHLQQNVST
CCATTACCCGCAAAGCACGTGAGGAAAAAATCAATT: 16100 a.u.
TTTCCAAGCCGCCGTCACGGCTGAATACCTGGCCAA: 2560 a.u.
CTCTGCTGGGGCCCTCACGTGGCCCTGGCATTTGGC: 15700 a.u.
AAAGCGGTAATTTGAATTGTGGGTGCAGATATCTAT: 3890 a.u.
GTAGTTCAAATCACCAGCGTGCTAACAATGTTCAAG: 9250 a.u.
GTACTGAGGTTAACACACGTTGTTGCGTACTCATCA: 12600 a.u.
GGCTCAAAGAGATCTCACGTGGTCGGAGTATGAACG: 18800 a.u.
CGATTCACTGTCCATCACGGGTCCGCCTGGCACTGG: 6510 a.u.
AAATTACTAAGTTGGGCAGTGGGTGACGCCGTATGA: 3660 a.u.
AAAGCGGTAATTTTTCACGTGAACTCACATATCTAT: 9440 a.u.
CATCGGCCCATTTGGCACACGCCAGTTAGTGAGGTT: 7090 a.u.
TCCTTCTTTATCCCACTCATGACAATCTGCAATATA: 4880 a.u.
GTCTTGTCTCATTGACACGTGGGTGTCCCCACTTCA: 16000 a.u.
CCTGGCCAAGGGCTTCACGTGTAATCTCATTTAATT: 12800 a.u.
TGCGCAACAACTTGCAACGTGGGTGTATGTCTAGAA: 13900 a.u.
CGGCCGCTGGCAGAGCACATGCGCCGTACGTCCATA: 8410 a.u.
AAATTACTAAGTTGGGTCGTGGGTGACGCCGTATGA: 8880 a.u.
AGTGGAACTAGTACCCACGTCAGCGGGCCTAGGCCC: 3570 a.u.
CTTCTGTAAATTTTTCACGTGGAATGACGCGCCCCG: 12000 a.u.
AAATTACTAAGTTTTCACGTGCAATACCCCGTATGA: 16300 a.u.
CGATAGGTATAGGATCAGGCTTCACACTTAGTGTTT: 3160 a.u.
CTTTCCCGATCTTGAAGCGTGGGTGTAGCACATTTG: 8440 a.u.
CCACCGGGGGCAAGTCTCATGACAATTGGCGCAAAT: 4130 a.u.
CGTTGGGCTGAAGACGACATGATAATTAAGAGAGCC: 3460 a.u.
GCCAAATCTGCCAGCTTCGTGATGGACATCAACAGA: 4020 a.u.

For quick reference, copied from above (series 5):
CGGCCGCTGGCAGAGCACATGCGCCGTACGTCCATA: 8410 a.u.
AAATTACTAAGTTGGGTCGTGGGTGACGCCGTATGA: 8880 a.u.
AGTGGAACTAGTACCCACGTCAGCGGGCCTAGGCCC: 3570 a.u.
CTTCTGTAAATTTTTCACGTGGAATGACGCGCCCCG: 12000 a.u.
AAATTACTAAGTTTTCACGTGCAATACCCCGTATGA: 16300 a.u.
CGATAGGTATAGGATCAGGCTTCACACTTAGTGTTT: 3160 a.u.
CTTTCCCGATCTTGAAGCGTGGGTGTAGCACATTTG: 8440 a.u.
CCACCGGGGGCAAGTCTCATGACAATTGGCGCAAAT: 4130 a.u.
